# Published values collected from several papers.
# Every numbered part comes from another study and shows a few of its results, in no order. Substitutions count along the parent as printed.

# Block 1
# Target: RNA binding protein fox-1 homolog 2, RRM domain, GST-SBP tag (RBFOX2, Homo sapiens, UniProt O43251-10, residues 100-194)
# Method: RNA Bind-n-Seq
# Molecule type: RNA
# Medium: in vitro
# Tested at: 365 nM
# Setting: natural RNA segment, single round, ends assumed
# Reference: no-protein control
# Reading: higher = stronger binding
# Target sequence (chain): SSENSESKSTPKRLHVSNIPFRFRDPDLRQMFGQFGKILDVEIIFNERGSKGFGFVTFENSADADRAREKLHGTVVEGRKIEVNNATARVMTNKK
Oligonucleotide,RBNS enrichment (R)
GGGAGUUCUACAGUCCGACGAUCAAAACCAAGCAUUGUGUACAGGAGCUAGGGCAGCGCAGGAGGCCCUUUCAGUUGGAGAGGCAGGUUGCUUUAAUGUCACUCUGACCUGCGUUGUUUGACUAUUUUAUAAUUGGAAUUCUCGGGUGCCAA,1.4
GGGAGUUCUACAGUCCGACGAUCACAAAGUUGUCUUACCUGUCAGUGUAUGAAGCACUUUGCUCCUUAAGACAGACACCUUGGAACUUUCAUUCGGAAAUUAGUCCCCGAAGUUUGAGAUAAGUCUUUUUUUGUGGAAUUCUCGGGUGCCAA,0.336
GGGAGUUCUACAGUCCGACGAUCACCCCCCUCCCCCUGUUAACAGUGGCUCAGAAAAGCUUUGUACUAAAAGCAUGGGACCCUCACAGCAACCAUUCCUGGGAGAUGGGUCCCUUAUAGGUCCAUGACCUGCUUGGAAUUCUCGGGUGCCAA,0.385
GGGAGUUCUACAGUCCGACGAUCCUGCGGUGGGCGGGGUCUUCGACGUCUCCAACGCUGACCGCCUGGGCUUCUCAGAGGUGGAGCUGGUGCAGAUGGUGGUGGACGGAGUGAAGCUGCUCAUCGAGAUGGAGUGGAAUUCUCGGGUGCCAA,0.793
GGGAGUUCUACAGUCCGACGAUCUGCCAGGAAGGGUUAGGACCAACUACAAAUUAAUGUUGGUUGUCAAAUGUAGUGUGUUUCCCUAACUUUCUGUUUUUCCUGAGAAAAAAAAAUAAAUCUUUUAUUCAAAUUGGAAUUCUCGGGUGCCAA,0.803
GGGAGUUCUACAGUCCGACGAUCUGACGCCCACCCCACGCUCUUUGCGAGGUUGUCCAGGCUGUGUUUGUCGCAUGCUCUUCUUCUGUAUAGUUCUCAUCUUCCAAUUUUAUGGGAUUCAACAAAAGCCUAUUUGGAAUUCUCGGGUGCCAA,4.97
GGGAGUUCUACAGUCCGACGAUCCUGACUUUGCCUAUAUAUCUUUCUGGGGUUUUGUUUGUGUUUAAUUUUUAUUUUGCAUACUGAGGGUAUUUGGGGUGGGGUUGUUUUUUGAGAUGUGUAAUUCUUUUAUGUGGAAUUCUCGGGUGCCAA,2
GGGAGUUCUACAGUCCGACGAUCACUGUUCACUGUACAAAAGCUUACAGUUUUCCACAAGGACUUUAAUAACUAGCUGGGAAAAGACGAUGUAAUUAUUUCGGGGCUCUGCGGAACCUUCUCUGUACAGCGCCUGGAAUUCUCGGGUGCCAA,0.17
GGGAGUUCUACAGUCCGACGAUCGUCUUGUGGGGGAAUUGGAUUCCAUUUUAGUUAUUUAAUACCUCACUCCCACCCACCUGCAUACUGCUUGUGUGUCCCGGCCUGUCCCGCAAGCCUAGUUGUGCUUUUUGUGGAAUUCUCGGGUGCCAA,1.98
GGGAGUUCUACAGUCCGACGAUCCAUUUUCCAGGGGGUUUAUGGUCAGGGCUCCCCAACCUGAGUUGGGCUACUUCCAAGGGCAGCCAGCAGGCCUGGACAGAGGUCUUGAAAGCCCUUGUCUUCUCUUCCCCUGGAAUUCUCGGGUGCCAA,0.409
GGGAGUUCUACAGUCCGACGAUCCUAACCACCAAGCUUCCCUUUGACUGGCUCCAAAGGCUUUUAUUUAAGUGAGAUGGAAAAGCUGAAUGCUGACACACCCCACCCAUAAGCAAAGUAUCAACGCUUUCUGAUGGAAUUCUCGGGUGCCAA,0.422
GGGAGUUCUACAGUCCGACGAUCGUCUCCAGGGUAGGAGUGUUUUUCUAGCAAGAAUCUUAGUCAGGAGUAAGCUCUGUGCGAGAGAUCUGUGAAUAACCAGAUAACCCCAGCUGCCGUUAACCUUUUCACCAUGGAAUUCUCGGGUGCCAA,0.432

# Block 2
# Target: Fragile X messenger ribonucleoprotein 1, C-terminal low-complexity region (Fmr1, Mus musculus, UniProt P35922)
# Method: RNA Bind-n-Seq
# Molecule type: RNA
# Medium: in vitro
# Tested at: 200 nM
# Setting: whole 134-nt RNA, ends assumed
# With: 150 mM LiCl
# Reference: input library
# Reading: higher = stronger binding
# Library: 7-deaza-guanosine replaces G
Oligonucleotide,log2 enrichment
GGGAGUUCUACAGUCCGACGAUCACCAUGCAGGUGGGCAUCUUUGGGAAGUGGGGCAAGGGGGGGAUAGGGAGGGGGGUAACACUUUGGGAACGGGUGGUCCCAGGUCGUUUCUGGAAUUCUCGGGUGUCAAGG,1.41
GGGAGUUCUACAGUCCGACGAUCUGGGAUGUGGAUUUUGUUUAUUUUUUUAGCUCAUUUCCAGGGGUGGGAAUUUUUUUUUAAUAUGUGUCAUGAAUAAAGUUGUUUUUGAAAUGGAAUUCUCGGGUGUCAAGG,1.19
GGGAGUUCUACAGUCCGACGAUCCUGUGCUACACAUCGUAUGUACCGAAUCGGAAAAAAAGGGGAAAAAAAGGGGAAAAAAAGGGAAAGUAUUAUGUUACGCCGUUCGGAUCUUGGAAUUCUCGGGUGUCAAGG,0.251
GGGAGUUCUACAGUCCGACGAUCUGGGAGGUGGAUCUUGUUUAUUUUUUUAGCUCAUUUCCAGGGGUGGGAAUUUUUUUUUAAUAUGUGUCAUGAAUAAAGUUGUUUUUGAAAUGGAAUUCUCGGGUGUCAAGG,0.818
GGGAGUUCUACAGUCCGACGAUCCCUGUGCUACACAUCGUAUGUACCGAAUCGGGGUUUGGGGAAAAAAAGGGGAAAAAGGGGAAAGUAUUAUGUUACGCCGUUCGGAUCUGCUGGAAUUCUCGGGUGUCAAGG,-0.0468
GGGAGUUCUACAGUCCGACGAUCUAACUUUAGAGGAGGAUCUGAUGGAUAUGGCAGUGGACGUGGAUUUGGGCAUGGCUAUAAUGGGUAUGGAGGAGGACCUGGAGGUGGCAAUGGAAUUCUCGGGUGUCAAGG,-0.593
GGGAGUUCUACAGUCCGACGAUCUCCUGUGCUACACAUCGUAUGUACCGAAUCGGCCCCCCCGGCCCCCCCGGGCCCCCCCGGAAAGUAUUAUGUUACGCCGUUCGGAUCUGCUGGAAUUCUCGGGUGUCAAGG,1.41
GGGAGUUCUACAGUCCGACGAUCUAACUUUAGAGGAGGAUCUGAUGGAUAUGGCAGUGGACGUGGAUUUGGGGAUGGCUAUAAUGGGUAUGGAGAAGGACCUGGAGGUGGCAAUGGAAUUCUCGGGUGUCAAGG,0.392
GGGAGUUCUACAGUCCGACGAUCAGUCCUGUGCUACACAUCGUAUGUACCGAAUCGGGAAAAAGGGAAAGGGUUUUUGGGAAAGUAUUAUGUUACGCCGUUCGGAUCUGCACUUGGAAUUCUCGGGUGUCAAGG,-2.17
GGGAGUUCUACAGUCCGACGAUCCUGUGCUACACAUCGUAUGUACCGAAUCGGGGUUUGGGGUUUUUUUGGGGUUUUUUUGGGGAAAGUAUUAUGUUACGCCGUUCGGAUCUGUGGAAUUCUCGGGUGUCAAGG,1.76
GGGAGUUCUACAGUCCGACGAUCAAGUCCUGUGCUACACAUCGUAUGUACCGAAUCGGGGAAAGGAAAGGGGAAAGGGGAAAGUAUUAUGUUACGCCGUUCGGAUCUGCACUUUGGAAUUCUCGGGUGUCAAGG,0.286

# Block 3
# Target: Sal-like protein 4, full length isoform A (SALL4, Homo sapiens, UniProt Q9UJQ4, residues 1-1053)
# Sequence of UniProt Q9UJQ4 (whole entry, looked up): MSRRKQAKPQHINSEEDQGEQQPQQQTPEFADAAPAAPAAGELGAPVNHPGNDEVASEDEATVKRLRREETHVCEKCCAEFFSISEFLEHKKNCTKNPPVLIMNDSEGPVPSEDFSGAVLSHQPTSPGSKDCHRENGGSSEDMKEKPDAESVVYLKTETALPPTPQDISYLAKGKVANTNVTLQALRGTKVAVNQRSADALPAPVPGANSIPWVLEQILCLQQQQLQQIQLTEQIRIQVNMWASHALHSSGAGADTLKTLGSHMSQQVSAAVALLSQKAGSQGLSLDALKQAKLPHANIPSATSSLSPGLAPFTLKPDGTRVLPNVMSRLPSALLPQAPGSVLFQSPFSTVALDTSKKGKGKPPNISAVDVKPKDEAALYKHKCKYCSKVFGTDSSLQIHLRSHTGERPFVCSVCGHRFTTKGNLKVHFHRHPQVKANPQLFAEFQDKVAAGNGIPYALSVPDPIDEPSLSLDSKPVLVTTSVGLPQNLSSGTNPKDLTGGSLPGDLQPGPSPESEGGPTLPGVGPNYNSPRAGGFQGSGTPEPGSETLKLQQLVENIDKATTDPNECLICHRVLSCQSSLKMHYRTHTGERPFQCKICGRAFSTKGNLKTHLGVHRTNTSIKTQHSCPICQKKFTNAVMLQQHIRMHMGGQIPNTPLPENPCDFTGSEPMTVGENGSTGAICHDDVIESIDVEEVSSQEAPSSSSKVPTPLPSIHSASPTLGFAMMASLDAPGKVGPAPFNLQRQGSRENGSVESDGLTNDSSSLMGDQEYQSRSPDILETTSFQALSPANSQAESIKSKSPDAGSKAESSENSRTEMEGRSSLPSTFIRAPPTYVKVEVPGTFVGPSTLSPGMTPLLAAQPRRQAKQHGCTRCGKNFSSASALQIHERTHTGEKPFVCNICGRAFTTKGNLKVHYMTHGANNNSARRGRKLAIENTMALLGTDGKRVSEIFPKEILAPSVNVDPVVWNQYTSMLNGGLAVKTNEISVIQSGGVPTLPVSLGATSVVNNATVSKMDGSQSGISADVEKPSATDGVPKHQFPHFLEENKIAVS
# Method: universal PBM
# Molecule type: double-stranded DNA, one strand shown
# Medium: in vitro
# Tested at: 600 nM
# Setting: 8-mer, flanks averaged, mean of replicates
# Reading: higher = stronger binding
Oligonucleotide,E-score
CGAACGAA,-0.0522
AGAAAAAT,0.359
CCCTATCC,-0.305
AGATTGTA,0.175
ATTACCTC,0.189
CAAGGATG,0.0397
GAAATACC,0.0493
ACTACTTG,0.12
CCGTCGCA,-0.205
ACCTTTTA,0.0623
ACCACAAA,0.128
AGAACTAG,-0.0379
ACGCGGAA,-0.0443
GACCGACC,-0.283
GAGACGTA,-0.0282
CTGCCAGA,-0.186
ATCAGCGG,-0.221
AGCGAGGA,-0.122
AAAGAAGC,0.0646
CGCGCCGA,-0.288
AGGTAATG,0.0344
CATAATCC,0.204
CGCGAACA,-0.0852

# Block 4
# Target: CEBPA, bZIP domain (human)
# Method: DHFR protein complementation
# Medium: yeast
# Setting: single substitutions, most at no-binding floor
# Reference: wild-type JUN-FOS pair
# Reading: higher = stronger binding
# Starting sequence: JUN, bZIP domain (human); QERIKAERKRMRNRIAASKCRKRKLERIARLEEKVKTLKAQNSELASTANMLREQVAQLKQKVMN; partner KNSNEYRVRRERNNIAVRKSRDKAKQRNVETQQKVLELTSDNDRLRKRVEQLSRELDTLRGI
Change,binding fitness
N42K,-1.47 natural log
A46I,-1.31 natural log
K34S,-1.46 natural log
E33Q,-1.41 natural log
A49F,-1.44 natural log
R53D,-1.49 natural log
A29I,-1.49 natural log
S43G,-1.45 natural log
K39E,-1.33 natural log
L52S,-1.48 natural log
L59C,-1.57 natural log
L52A,-1.51 natural log
I28C,-1.37 natural log
L38K,-1.5 natural log
A29M,-1.53 natural log
A46R,-1.35 natural log
R30V,-1.4 natural log
K34L,-1.27 natural log
T48M,-1.42 natural log
E54A,-1.44 natural log
V35P,-1.48 natural log
Q55Y,-1.41 natural log
S43D,-1.4 natural log
E32G,-1.44 natural log
L38C,-1.48 natural log

# Block 5
# Target: Eukaryotic initiation factor 4A-I (EIF4A1, Homo sapiens, UniProt P60842, residues 1-406, full length assumed)
# Sequence of UniProt P60842 (whole entry, looked up): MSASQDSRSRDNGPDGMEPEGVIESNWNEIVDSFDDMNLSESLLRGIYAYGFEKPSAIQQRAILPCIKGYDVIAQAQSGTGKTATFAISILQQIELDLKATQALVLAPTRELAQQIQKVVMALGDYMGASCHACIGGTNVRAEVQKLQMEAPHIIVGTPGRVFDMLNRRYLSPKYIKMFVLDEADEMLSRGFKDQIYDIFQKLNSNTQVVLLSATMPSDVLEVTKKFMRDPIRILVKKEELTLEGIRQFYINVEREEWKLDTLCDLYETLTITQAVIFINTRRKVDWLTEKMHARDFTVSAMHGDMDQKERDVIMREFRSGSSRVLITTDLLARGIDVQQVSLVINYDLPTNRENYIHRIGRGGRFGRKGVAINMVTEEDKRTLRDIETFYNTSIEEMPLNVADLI
# Method: RNA Bind-n-Seq
# Molecule type: RNA
# Medium: in vitro
# Tested at: 15 pmol
# Setting: 4-mer, random 30-nt RNA, single round
# With: 3 µM DMDA-PatA, 2 mM AMP-PNP
# Reference: input library
# Reading: higher = stronger binding
Oligonucleotide,4-mer enrichment
CGGG,1.65 fold
CACA,0.619 fold
GCGG,1.18 fold
UCAA,0.493 fold
UACU,1.01 fold
UGAU,1.28 fold

# Block 6
# Target: Histone acetyltransferase KAT6A, winged helix 1, GST fusion (KAT6A, Homo sapiens, UniProt Q92794, residues 1-85)
# Method: protein binding microarray
# Molecule type: double-stranded DNA, one strand shown
# Medium: in vitro
# Tested at: not given
# Setting: 8-mer, flanks averaged, mean of 2 arrays, mostly near background
# Reference: not given
# Reading: higher = stronger binding
# Construct (chain): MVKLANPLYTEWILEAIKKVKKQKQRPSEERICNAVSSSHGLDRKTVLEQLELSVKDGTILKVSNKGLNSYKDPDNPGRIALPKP
Oligonucleotide,E-score
ATTCACTA,-0.283
AAAAACAT,-0.119
ATCTGCGA,-0.0712
GTCCGAAA,-0.00511
CCTATGAA,-0.0124
CTCCCCGC,0.294
CTTACTTC,-0.0506
CCGGGAAC,0.362
GCGTGATA,0.16
ACTTGGGG,-0.0997
TCTTCCCA,-0.215
TACCACGA,-0.206
AAACTACT,-0.0678
AGCATTGC,0.0129
CAAGTGCA,-0.231
CGGGAGGC,0.233
GTCGGCTA,0.303
ATCGATGG,-0.179
AAATTCAC,-0.161
CCGCTTAC,0.154
CCCGGTAA,0.29
CCTGTTCG,-0.0565
GGCTGTCA,-0.0345
ATCACAGA,-0.247
CCTACCTC,-0.319

# Excerpt of the above (block 4):
Change,binding fitness
L52S,-1.48 natural log
L59C,-1.57 natural log
L52A,-1.51 natural log
I28C,-1.37 natural log
L38K,-1.5 natural log
A29M,-1.53 natural log
A46R,-1.35 natural log
R30V,-1.4 natural log
K34L,-1.27 natural log
T48M,-1.42 natural log
